Published values gathered from unrelated publications.
Parts stem from different laboratories: compare values within a part only.
Sequence of UniProt Q13177 (whole entry, looked up): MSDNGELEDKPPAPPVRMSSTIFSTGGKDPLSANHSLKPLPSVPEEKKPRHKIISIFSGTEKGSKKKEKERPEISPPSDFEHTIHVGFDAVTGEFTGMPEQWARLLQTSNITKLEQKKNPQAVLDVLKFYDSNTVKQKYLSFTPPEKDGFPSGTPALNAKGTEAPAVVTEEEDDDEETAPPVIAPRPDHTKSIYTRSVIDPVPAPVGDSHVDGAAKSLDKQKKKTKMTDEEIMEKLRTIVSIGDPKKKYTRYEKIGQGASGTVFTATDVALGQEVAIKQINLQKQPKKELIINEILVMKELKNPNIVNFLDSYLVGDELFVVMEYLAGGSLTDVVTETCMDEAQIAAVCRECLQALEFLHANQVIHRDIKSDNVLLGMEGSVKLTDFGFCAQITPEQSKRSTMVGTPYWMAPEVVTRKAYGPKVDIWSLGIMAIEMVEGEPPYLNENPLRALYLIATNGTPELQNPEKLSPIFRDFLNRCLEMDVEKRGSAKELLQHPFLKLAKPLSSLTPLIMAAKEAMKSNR
Sequence of UniProt Q8IVW4 (whole entry, looked up): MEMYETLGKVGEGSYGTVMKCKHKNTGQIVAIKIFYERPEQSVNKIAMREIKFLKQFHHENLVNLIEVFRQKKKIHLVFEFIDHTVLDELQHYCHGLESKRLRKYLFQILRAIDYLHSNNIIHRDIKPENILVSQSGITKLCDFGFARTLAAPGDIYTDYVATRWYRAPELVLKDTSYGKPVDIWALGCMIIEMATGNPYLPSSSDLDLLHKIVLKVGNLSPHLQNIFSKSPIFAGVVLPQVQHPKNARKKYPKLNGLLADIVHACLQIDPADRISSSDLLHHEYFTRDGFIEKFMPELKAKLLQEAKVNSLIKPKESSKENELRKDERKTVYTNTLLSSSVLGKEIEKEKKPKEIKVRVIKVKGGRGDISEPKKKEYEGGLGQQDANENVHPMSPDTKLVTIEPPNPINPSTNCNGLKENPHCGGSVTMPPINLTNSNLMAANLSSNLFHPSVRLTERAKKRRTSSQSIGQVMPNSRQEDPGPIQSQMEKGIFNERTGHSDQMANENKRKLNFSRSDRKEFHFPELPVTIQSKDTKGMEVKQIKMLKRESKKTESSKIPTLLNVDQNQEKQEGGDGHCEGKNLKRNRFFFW
Sequence of UniProt Q15349 (whole entry, looked up): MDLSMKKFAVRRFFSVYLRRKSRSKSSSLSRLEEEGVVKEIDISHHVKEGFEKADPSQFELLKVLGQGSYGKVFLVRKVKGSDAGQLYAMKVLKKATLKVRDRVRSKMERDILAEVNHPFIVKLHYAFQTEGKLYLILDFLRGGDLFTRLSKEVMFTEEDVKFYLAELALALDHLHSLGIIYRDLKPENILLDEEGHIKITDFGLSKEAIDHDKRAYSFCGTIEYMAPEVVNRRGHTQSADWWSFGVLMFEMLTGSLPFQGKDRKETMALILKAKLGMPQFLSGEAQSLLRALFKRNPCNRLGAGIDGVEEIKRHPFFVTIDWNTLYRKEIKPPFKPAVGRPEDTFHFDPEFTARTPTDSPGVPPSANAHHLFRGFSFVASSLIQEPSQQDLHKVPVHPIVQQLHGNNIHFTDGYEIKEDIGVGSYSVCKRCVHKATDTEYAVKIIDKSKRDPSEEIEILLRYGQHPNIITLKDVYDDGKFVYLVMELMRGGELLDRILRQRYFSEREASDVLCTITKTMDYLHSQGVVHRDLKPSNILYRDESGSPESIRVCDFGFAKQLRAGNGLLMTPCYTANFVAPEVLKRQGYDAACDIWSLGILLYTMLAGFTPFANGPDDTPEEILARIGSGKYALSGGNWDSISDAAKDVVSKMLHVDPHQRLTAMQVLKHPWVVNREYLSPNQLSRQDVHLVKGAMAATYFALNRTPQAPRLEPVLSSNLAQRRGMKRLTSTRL
Sequence of UniProt Q8TD08 (whole entry, looked up): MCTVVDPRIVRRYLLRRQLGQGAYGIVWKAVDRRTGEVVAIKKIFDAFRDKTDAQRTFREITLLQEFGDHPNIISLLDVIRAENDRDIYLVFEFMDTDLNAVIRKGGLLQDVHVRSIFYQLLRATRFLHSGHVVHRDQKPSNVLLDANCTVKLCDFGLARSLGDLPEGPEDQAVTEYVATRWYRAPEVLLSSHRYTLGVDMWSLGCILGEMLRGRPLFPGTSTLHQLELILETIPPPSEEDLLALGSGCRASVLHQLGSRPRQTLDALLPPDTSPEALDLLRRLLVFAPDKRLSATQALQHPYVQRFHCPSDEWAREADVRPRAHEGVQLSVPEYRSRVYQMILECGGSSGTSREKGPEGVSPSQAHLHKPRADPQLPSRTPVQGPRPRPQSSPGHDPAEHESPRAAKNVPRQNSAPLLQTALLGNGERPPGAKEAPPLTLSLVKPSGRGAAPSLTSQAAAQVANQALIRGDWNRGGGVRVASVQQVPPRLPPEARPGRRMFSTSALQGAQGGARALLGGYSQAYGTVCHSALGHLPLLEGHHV
Sequence of UniProt Q00526 (whole entry, looked up): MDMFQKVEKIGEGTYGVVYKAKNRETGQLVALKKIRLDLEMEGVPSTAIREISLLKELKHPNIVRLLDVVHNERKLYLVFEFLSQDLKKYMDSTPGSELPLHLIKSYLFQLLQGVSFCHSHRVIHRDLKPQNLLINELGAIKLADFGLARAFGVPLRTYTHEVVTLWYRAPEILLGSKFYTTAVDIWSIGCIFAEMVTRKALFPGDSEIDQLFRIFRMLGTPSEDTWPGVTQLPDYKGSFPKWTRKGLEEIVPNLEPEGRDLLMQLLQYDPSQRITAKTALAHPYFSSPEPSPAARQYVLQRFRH
Sequence of UniProt P06239 (whole entry, looked up): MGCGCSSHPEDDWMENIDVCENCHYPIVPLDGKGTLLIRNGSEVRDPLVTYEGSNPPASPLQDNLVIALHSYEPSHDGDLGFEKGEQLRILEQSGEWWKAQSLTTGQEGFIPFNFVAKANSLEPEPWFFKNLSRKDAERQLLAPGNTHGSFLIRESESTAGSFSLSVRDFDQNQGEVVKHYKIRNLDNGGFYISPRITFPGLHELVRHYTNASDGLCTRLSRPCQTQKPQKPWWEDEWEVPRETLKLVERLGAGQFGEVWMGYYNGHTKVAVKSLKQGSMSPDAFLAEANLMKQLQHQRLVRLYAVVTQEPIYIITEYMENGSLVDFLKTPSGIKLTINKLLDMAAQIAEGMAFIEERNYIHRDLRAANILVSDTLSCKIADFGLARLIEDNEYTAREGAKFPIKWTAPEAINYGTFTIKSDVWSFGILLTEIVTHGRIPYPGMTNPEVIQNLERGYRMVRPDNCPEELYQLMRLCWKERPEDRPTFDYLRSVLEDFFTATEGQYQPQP
Sequence of UniProt O60674 (whole entry, looked up): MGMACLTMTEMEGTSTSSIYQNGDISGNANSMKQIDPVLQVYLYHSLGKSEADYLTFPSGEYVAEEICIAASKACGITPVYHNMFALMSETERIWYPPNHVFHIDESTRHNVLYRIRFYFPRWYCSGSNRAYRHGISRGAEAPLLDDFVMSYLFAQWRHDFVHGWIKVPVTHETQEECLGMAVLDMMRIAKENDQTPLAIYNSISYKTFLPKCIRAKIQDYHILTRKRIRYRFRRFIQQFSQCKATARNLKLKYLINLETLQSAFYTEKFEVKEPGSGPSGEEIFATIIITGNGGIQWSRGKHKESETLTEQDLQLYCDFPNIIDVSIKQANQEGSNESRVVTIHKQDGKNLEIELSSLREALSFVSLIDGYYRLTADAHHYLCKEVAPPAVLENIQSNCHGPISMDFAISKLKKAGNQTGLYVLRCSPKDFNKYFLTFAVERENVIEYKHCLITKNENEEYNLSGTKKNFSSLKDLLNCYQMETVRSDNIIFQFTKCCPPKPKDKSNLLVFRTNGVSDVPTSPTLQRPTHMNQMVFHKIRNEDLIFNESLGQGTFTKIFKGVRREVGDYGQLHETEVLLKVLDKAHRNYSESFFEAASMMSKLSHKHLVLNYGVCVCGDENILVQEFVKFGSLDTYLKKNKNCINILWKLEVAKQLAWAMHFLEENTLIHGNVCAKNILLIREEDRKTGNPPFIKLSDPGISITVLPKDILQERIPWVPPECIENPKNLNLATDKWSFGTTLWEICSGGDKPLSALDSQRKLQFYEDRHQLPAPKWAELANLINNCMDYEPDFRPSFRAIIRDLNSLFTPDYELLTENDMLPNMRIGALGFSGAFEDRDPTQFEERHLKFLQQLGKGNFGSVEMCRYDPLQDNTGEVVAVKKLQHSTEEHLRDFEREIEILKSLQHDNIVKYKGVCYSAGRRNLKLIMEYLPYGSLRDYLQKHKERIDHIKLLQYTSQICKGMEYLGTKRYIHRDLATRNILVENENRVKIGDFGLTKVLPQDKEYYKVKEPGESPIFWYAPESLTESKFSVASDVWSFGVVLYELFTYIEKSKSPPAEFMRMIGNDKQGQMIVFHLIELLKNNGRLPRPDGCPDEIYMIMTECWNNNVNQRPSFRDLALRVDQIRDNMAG
Sequence of UniProt P28482 (whole entry, looked up): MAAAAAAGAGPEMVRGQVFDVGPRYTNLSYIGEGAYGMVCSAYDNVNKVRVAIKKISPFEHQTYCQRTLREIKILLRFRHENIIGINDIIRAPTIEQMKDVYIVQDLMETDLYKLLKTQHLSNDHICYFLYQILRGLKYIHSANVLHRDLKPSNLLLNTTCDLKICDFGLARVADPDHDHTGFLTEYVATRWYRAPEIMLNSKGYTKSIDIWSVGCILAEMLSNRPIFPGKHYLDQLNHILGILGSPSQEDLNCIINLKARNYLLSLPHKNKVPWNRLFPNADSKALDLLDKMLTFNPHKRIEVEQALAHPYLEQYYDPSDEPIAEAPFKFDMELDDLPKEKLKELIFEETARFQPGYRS

Series 1
Cell line: HaCaT
Tested at: 100 µM
Time: 60 h
The viability of `Cc1ncc(C[n+]2csc(CCO)c2C)c(N)n1` is reported as 136%.
`O=C(OC[C@H]1O[C@@H](OC(=O)c2cc(O)c(O)c(OC(=O)c3cc(O)c(O)c(O)c3)c2)[C@H](OC(=O)c2cc(O)c(O)c(OC(=O)c3cc(O)c(O)c(O)c3)c2)[C@@H](OC(=O)c2cc(O)c(O)c(OC(=O)c3cc(O)c(O)c(O)c3)c2)[C@@H]1OC(=O)c1cc(O)c(O)c(OC(=O)c2cc(O)c(O)c(O)c2)c1)c1cc(O)c(O)c(OC(=O)c2cc(O)c(O)c(O)c2)c1` has a viability of 55.3%.
`Oc1cc(O)cc(/C=C/c2ccc(O)c(O)c2)c1` has a viability of 129%.

Series 2
Host: human
Sample: microsomes or S9
Tested at: 2 µM
Time: 0.5 h
With `O=c1ccc(-c2ccc(S(=O)(=O)NCc3cccc(Br)c3)s2)n[nH]1` the remaining compound was 14.7%.
For `COc1ccc(/N=c2\[nH]nc3nc(C)cc(C)n23)cc1`, the remaining compound was 51.5%.
`COC(=O)CCCn1c(C(=O)c2ccccc2)c(C(C)C)c(=O)[nH]c1=O` gave a remaining compound of 8.25%.
`COCc1cc(C)nc2sc(-c3nc(N)nc(N(C)C)n3)c(N)c12` has a remaining compound of 14.5%.
For `Cc1ccc(NC(=O)C(C)C(=O)Nc2ccc(C)cc2)cc1`, the remaining compound was 11.6%.

Series 3
Structure (SMILES): COc1ccc2[nH]c3c4[nH]c5ccc(OC)cc5c4c4c(c3c2c1)C(=O)NC4=O
Tested at: 1 µM
Bone morphogenetic protein receptor type-2 (BMPR2, Homo sapiens, UniProt Q13873); binding — remaining binding: 93%.
The remaining binding was 84% (Non-receptor tyrosine-protein kinase TYK2, JH2 (TYK2, Homo sapiens, UniProt P29597); binding, competition with immobilised ligand).
The remaining binding was 100% (Cyclin-dependent kinase 3 (CDK3, Homo sapiens, UniProt Q00526); binding, competition with immobilised ligand).
Serine/threonine-protein kinase Nek9 (NEK9, Homo sapiens, UniProt Q8TD19); binding — remaining binding: 100%.
The remaining binding was 9.7% (Receptor-type tyrosine-protein kinase FLT3 (FLT3, Homo sapiens, UniProt P36888, K663Q); binding).
It gave 84% for remaining binding (Tyrosine-protein kinase JAK2, JH1 (JAK2, Homo sapiens, UniProt O60674); cell-free assay, competition with immobilised ligand).
It gave 28% for remaining binding (Ribosomal protein S6 kinase alpha-2, N-terminal kinase domain (RPS6KA2, Homo sapiens, UniProt Q15349); binding, competition with immobilised ligand).

Series 4
Structure (SMILES): O=C(NCc1ncc(C(F)(F)F)cc1Cl)c1ccc2c(c1)C1(CCS(=O)(=O)CC1)[C@H](C1CC1)N2S(=O)(=O)c1ccc(F)cc1
Tested at: 1 µM
Serine/threonine-protein kinase PAK 2 (PAK2, Homo sapiens, UniProt Q13177); cell-free assay, competition with immobilised ligand — remaining binding: 100%.
Ribosomal protein S6 kinase alpha-5, C-terminal kinase domain (RPS6KA5, Homo sapiens, UniProt O75582); cell-free assay, competition with immobilised ligand — remaining binding: 100%.
The remaining binding was 100% (Serine/threonine-protein kinase BRSK1 (BRSK1, Homo sapiens, UniProt Q8TDC3); cell-free assay, competition with immobilised ligand).
The remaining binding was 100% (Tyrosine-protein kinase SYK (SYK, Homo sapiens, UniProt P43405); cell-free assay, competition with immobilised ligand).
For Ephrin type-A receptor 5 (EPHA5, Homo sapiens, UniProt P54756); cell-free assay, competition with immobilised ligand: remaining binding read 100%.
MAP kinase-activated protein kinase 5 (MAPKAPK5, Homo sapiens, UniProt Q8IW41); cell-free assay, competition with immobilised ligand — remaining binding: 100%.
For Cyclin-dependent kinase 19 (CDK19, Homo sapiens, UniProt Q9BWU1); competition binding: remaining binding read 100%.
Mitogen-activated protein kinase 15 (MAPK15, Homo sapiens, UniProt Q8TD08); cell-free assay, competition with immobilised ligand — remaining binding: 100%.
It gave 100% for remaining binding (Serine/threonine-protein kinase mTOR (MTOR, Homo sapiens, UniProt P42345); cell-free assay, competition with immobilised ligand).
For Tyrosine-protein kinase Lck (LCK, Homo sapiens, UniProt P06239); cell-free assay, competition with immobilised ligand: remaining binding read 100%.
Epidermal growth factor receptor (EGFR, Homo sapiens, UniProt P00533, L858R); cell-free assay, competition with immobilised ligand — remaining binding: 94%.
For Receptor-type tyrosine-protein kinase FLT3 (FLT3, Homo sapiens, UniProt P36888, D835Y); cell-free assay, competition with immobilised ligand: remaining binding read 100%.
The remaining binding was 100% (Interferon-induced, double-stranded RNA-activated protein kinase (EIF2AK2, Homo sapiens, UniProt P19525); cell-free assay, competition with immobilised ligand).
The remaining binding was 97% (Serine/threonine-protein kinase WNK2 (WNK2, Homo sapiens, UniProt Q9Y3S1); cell-free assay, competition with immobilised ligand).
Aurora kinase A (AURKA, Homo sapiens, UniProt O14965); cell-free assay, competition with immobilised ligand — remaining binding: 97%.
Serine/threonine-protein kinase 35 (STK35, Homo sapiens, UniProt Q8TDR2); cell-free assay, competition with immobilised ligand — remaining binding: 100%.
The remaining binding was 81% (Mitogen-activated protein kinase 1 (MAPK1, Homo sapiens, UniProt P28482); cell-free assay, competition with immobilised ligand).
The remaining binding was 100% (Cyclin-dependent kinase-like 3 (CDKL3, Homo sapiens, UniProt Q8IVW4); cell-free assay, competition with immobilised ligand).
It gave 92% for remaining binding (Platelet-derived growth factor receptor beta (PDGFRB, Homo sapiens, UniProt P09619); cell-free assay, competition with immobilised ligand).
It gave 64% for remaining binding (Tyrosine-protein kinase BTK (BTK, Homo sapiens, UniProt Q06187); cell-free assay, competition with immobilised ligand).

Series 5
Organism: Sarcocystis neurona
Read-out: parasite growth
Tested at: concentration not given
Setting: first screen
Relative to: untreated
`C[C@H](N[C@@H](CCc1ccccc1)C(=O)O)C(=O)N1CCC[C@H]1C(=O)O` — result for “log2 fold change”: -0.09.
`CC(C)C[C@H](NC(=O)[C@@H](COC(C)(C)C)NC(=O)[C@H](Cc1ccc(O)cc1)NC(=O)[C@H](CO)NC(=O)[C@H](Cc1c[nH]c2ccccc12)NC(=O)[C@H](Cc1cnc[nH]1)NC(=O)[C@@H]1CCC(=O)N1)C(=O)N[C@@H](CCCNC(=N)N)C(=O)N1CCC[C@H]1C(=O)NNC(N)=O`: “log2 fold change” -0.09.
`NC(=O)OCC(COC(N)=O)c1ccccc1.O`: “log2 fold change” -0.06.
`CC(CN1c2ccccc2Sc2ccccc21)N(C)C.Cl` (centres unmarked) — result for “log2 fold change”: -0.31.
`CN1[C@@H](CC(=O)c2ccccc2)CCC[C@H]1C[C@H](O)c1ccccc1.Cl`: “log2 fold change” 0.0121.
`CN1CCC(=C2c3ccccc3CCc3sccc32)CC1.O=C(O)/C=C\C(=O)O`: “log2 fold change” -0.07.

A few entries again (series 4):
It gave 64% for remaining binding (Tyrosine-protein kinase BTK (BTK, Homo sapiens, UniProt Q06187); cell-free assay, competition with immobilised ligand).
MAP kinase-activated protein kinase 5 (MAPKAPK5, Homo sapiens, UniProt Q8IW41); cell-free assay, competition with immobilised ligand — remaining binding: 100%.
For Receptor-type tyrosine-protein kinase FLT3 (FLT3, Homo sapiens, UniProt P36888, D835Y); cell-free assay, competition with immobilised ligand: remaining binding read 100%.
It gave 92% for remaining binding (Platelet-derived growth factor receptor beta (PDGFRB, Homo sapiens, UniProt P09619); cell-free assay, competition with immobilised ligand).
